# Results from different studies.
# Numbered parts are unrelated; each lists some results of a single study. Positions count from the first letter of the parent shown.

# Sample 1 — target: CCNA2, cyclin fold, Cln2 fusion (human); technique: yeast growth competition, sequencing; sample: yeast; notes: strong parent motif; relative to: not given; direction: higher = stronger binding
# Starting sequence: viral docking peptide; YKVKRRLVFGADD; partner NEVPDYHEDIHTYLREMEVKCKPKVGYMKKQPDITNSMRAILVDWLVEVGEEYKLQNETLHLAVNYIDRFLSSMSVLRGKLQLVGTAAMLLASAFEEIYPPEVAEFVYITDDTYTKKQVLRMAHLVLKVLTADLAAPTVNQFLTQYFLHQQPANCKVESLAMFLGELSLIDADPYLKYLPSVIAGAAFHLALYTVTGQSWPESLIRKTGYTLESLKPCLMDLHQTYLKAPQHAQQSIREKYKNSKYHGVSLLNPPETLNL
Substitution,normalised enrichment score
YKVKRRLVRGADD [F9R],0.671
YKVKGRLVFGADD [R5G],1.67
YFVKRRLVFGADD [K2F],6.08
YKVKRRLVFGGDD [A11G],6.39
YKVKRRLHFGADD [V8H],6.27
YKVKRRLVFGWDD [A11W],6.45
YKMKRRLVFGADD [V3M],4.6
YKVKRYLVFGADD [R6Y],2.55
YKVKRRLVKGADD [F9K],0.561
YKVKRRPVFGADD [L7P],0.842
YKVKRRLVFGASD [D12S],6.32
YKVKRRLVDGADD [F9D],0.756
YKVKRRLVFGNDD [A11N],6.23
YKVKRPLVFGADD [R6P],2.47
YKVKRRIVFGADD [L7I],5.43
YKVKRRDVFGADD [L7D],0.533

# Sample 2 — technique: protein binding microarray; molecule type: double-stranded DNA, one strand shown; sample: in vitro; concentration: not given; relative to: not given; direction: higher = stronger binding
# Target: Histone acetyltransferase KAT6A, winged helix 2, GST fusion (KAT6A, Homo sapiens, UniProt Q92794, residues 85-181)
# Notes: 8-mer, flanks averaged, mean of 2 arrays, mostly near background
# Construct (chain): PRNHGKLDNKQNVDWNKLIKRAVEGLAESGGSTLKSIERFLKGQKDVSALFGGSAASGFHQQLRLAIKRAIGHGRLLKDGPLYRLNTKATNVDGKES
Strand,E-score
CGCAGATA,0.0456
CAAAGGGA,-0.0414
AACATACG,-0.0287
AACATGCG,-0.109
ACACCCAA,0.0178
ACAGCTAA,0.0111
CTACACGC,-0.0216
CCATACTA,0.0888

# Sample 3 — target: tungstate, free oxyanion; technique: microfluidic competitive inhibition; sample: in vitro, cell-free expressed; concentration: not given; direction: lower = stronger binding
# Notes: derived from inhibition constants, unchanged parent 2230 nM
# Starting sequence: PafA, mature enzyme, eGFP fusion (Elizabethkingia meningoseptica, UniProt Q9KJX5); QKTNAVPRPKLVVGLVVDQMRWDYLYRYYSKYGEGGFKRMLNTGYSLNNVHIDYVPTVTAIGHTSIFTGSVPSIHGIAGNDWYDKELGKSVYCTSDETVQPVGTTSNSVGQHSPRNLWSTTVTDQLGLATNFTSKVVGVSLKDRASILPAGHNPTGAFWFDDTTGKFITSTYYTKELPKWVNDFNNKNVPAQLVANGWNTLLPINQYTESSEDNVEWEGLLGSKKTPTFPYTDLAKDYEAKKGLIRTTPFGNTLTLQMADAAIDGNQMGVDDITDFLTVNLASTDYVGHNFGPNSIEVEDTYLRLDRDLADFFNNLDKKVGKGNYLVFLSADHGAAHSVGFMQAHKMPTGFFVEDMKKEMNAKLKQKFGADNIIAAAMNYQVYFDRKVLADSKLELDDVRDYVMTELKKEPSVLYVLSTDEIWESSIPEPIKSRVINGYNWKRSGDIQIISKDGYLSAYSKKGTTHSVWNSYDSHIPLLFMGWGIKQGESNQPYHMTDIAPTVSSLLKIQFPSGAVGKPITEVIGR
Substitution,oxyanion analog dissociation constant
G151A,1.52 µM
N280V,169 µM
P154G,878 nM

# Sample 4 — technique: RNA Bind-n-Seq; molecule type: RNA; sample: in vitro; concentration: 200 nM; notes: whole 134-nt RNA, ends assumed; together with: 150 mM LiCl; relative to: input library; direction: higher = stronger binding; each molecule: 7-deaza-guanosine replaces G
# Target: Ras GTPase-activating protein-binding protein 1, full length (G3BP1, Homo sapiens, UniProt Q13283)
# Chain of UniProt Q13283 (whole entry, looked up): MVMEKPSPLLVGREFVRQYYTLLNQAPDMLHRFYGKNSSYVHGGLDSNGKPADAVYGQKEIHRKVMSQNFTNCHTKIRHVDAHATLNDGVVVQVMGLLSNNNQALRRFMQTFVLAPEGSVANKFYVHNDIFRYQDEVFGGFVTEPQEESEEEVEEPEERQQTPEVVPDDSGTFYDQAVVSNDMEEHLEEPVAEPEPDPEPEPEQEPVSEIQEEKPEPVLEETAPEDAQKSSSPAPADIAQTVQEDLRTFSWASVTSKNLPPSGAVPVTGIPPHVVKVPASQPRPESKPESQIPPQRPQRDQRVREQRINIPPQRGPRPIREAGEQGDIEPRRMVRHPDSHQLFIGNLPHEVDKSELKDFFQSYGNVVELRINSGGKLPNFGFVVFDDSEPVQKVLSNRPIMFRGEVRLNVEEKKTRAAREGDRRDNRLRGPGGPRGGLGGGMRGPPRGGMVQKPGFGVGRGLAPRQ
# Shared flanks, not repeated: GGGAGUUCUACAGUCCGACGAUC … UGGAAUUCUCGGGUGUCAAGG
Strand,log2 enrichment
UUCUCUUCACUCCCACCAGUGCGGGUGGUCUUUGCAGUGACUAUGGAAGGCAGUGCACGGAAAGUCAUCACUGUCCGGUCAGCCCUCAUU,0.687
AGUCCUGUGCUACACAUCGUAUGUACCGAAUCGGUUUGGAAAAAAAGGUUUUUUUGGAAAGUAUUAUGUUACGCCGUUCGGAUCUGCACU,-2.41
CCUGUGCUACACAUCGUAUGUACCGAAUCGGGAAAAAAAGGGAAAAAAAGGGAAAAAGGGAAAGUAUUAUGUUACGCCGUUCGGAUCUGC,-0.281
CCUCAAGUCCUGUGCUACACAUCGUAUGUACCGAAUCGGGAGGAGGGAGGGGAAAGUAUUAUGUUACGCCGUUCGGAUCUGCACUUCCAG,0.372
CAAGUCCUGUGCUACACAUCGUAUGUACCGAAUCGGCCCGGGGCCCGGGGCCCGGGAAAGUAUUAUGUUACGCCGUUCGGAUCUGCACUU,-0.439
ACAAAGCAGGUGGGCAUCUUUGGGAAGUGGGGCAAGGGGGGGAUAGGGAGGGGGGUAACACUUUGGGAACAGGUGGUCCCAGGUCGUUUC,0.176
UUGAGAAAAGCACCCAUAAUUUGCUACUUGAGGAUUUUAUUCCCUGGAUUCUCUGGAUGCUCAUUGCAUGAAAAGUGGAAAAGUUUAGAU,-1.29
UGGUAAGAAAUCUGCUUGUUUUAUUAAAAUGCUUAAUUGAAGAAAAUAAUAUUCUUCUGUGAUUAAAAUUAGGAAGAAAUAGAACCAUUU,-1.82

# A few entries again (sample 2):
Strand,E-score
AACATACG,-0.0287
AACATGCG,-0.109
ACACCCAA,0.0178
ACAGCTAA,0.0111
